# Assay results from different studies.
# Parts stem from different laboratories: compare values within a part only. Substitutions count along the parent as printed.

# Set 1
# Target: CCNB3, cyclin fold, Cln2 fusion (human)
# Technique: yeast growth competition, sequencing
# Matrix: yeast
# Notes: weak parent motif
# Relative to: not given
# Reading: higher = stronger binding
# Parent: E2F1 docking peptide (human); PPVKRRLDLETDH
Substitution,normalised enrichment score
PPVKRRLKLETDH [D8K],0.463
PPPKRRLDLETDH [V3P],0.822
PPVKRFLDLETDH [R6F],-0.172
PPVKRPLDLETDH [R6P],0.0181
PPVKRRLQLETDH [D8Q],0.241
PPVKRRLMLETDH [D8M],0.222
PPVKRRLDLETDY [H13Y],0.545
PPVKMRLDLETDH [R5M],-0.0213
PPVQRRLDLETDH [K4Q],0.447
PIVKRRLDLETDH [P2I],-0.196
PPVKRRLDLENDH [T11N],-0.0933
FPVKRRLDLETDH [P1F],0.874
PPVKRRSDLETDH [L7S],0.553
PPVKRRLDLETDE [H13E],0.239
YPVKRRLDLETDH [P1Y],1.24
PPVKRRLDLERDH [T11R],0.237
PPVKRRLDLITDH [E10I],0.659
PPVKRRLDLNTDH [E10N],0.607
PPVKRRLDLGTDH [E10G],0.563
PPVKRRLDLEPDH [T11P],0.927
PPVKRRLDLETNH [D12N],0.124
PPVKRRLDLEQDH [T11Q],0.282
PMVKRRLDLETDH [P2M],-0.216
PPVKRRLDLETDA [H13A],0.415

# Set 2
# Target: Interferon regulatory factor 3, full length, phosphomimetic (IRF3, Homo sapiens, UniProt Q14653, residues 1-427, S386D/S396D/S398D/S402D/T404D/S405D)
# Technique: protein-binding microarray
# Form: double-stranded DNA, one strand shown
# Matrix: in vitro
# Concentration: 2540 nM top
# Notes: 60-bp whole probe
# Together with: salmon DNA 0.4 mg/ml
# Relative to: random background probes
# Reading: higher = stronger binding
# All sequences stand within: GCCTAGCAC … GTCTTGATTCGCTTGACGCTGCTG
# Target sequence (chain): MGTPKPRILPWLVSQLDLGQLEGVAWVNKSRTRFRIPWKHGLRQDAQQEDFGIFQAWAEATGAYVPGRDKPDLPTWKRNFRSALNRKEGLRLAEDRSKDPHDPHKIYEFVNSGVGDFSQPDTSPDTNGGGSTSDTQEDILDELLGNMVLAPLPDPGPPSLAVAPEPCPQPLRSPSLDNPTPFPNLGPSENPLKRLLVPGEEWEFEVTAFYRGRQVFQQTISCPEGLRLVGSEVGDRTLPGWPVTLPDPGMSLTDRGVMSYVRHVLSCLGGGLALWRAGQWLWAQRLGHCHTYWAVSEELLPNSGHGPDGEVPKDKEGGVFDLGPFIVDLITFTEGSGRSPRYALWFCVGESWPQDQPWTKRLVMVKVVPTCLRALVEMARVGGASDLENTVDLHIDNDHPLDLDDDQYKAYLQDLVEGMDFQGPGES
Strand,fitted relative affinity [z-score]
TGAGGACTGGGGTTTCGGTTAGTGCTA,2.25
TCACCTCTCCTCTCAGGAACTGTGCTA,0.607
TTAGGTATCGGTATCGGTCAGTGCTAG,4.56
TCAGCTTTGCAGATAAAACTGTGCTAG,-0.115
GACGGTTTCCGACTGCTGACGTGCTAG,5.04
GACGGTTTCGGGCTTCGGGACGTGCTA,3.96
GACGATATCGGGTTTCGAGATGTGCTA,1.23
GGCTTTTTAATGAATGAAGAGGTGCTA,-0.128
TTAGGTTTCAGGTTTCGGTTAGTGCTA,5.22
GACGAACTGAGTCGCGAGACGTGCTAG,-0.316
TTAGATTTCAGTTTTGATTAGTGCTAG,3.39
TTAGATATCGGGACTAGATTAGTGCTA,0.0811
TCATCTGTCATTTTCTCACTGTGCTAG,1.18
TTAGATTTCGAGACTGGATTAGTGCTA,0.85

# Set 3
# Target: RING finger protein unkempt homolog, zinc fingers 1-6, GST-SBP tag (UNK, Homo sapiens, UniProt Q9C0B0, residues 30-357)
# Sequence of UniProt Q9C0B0 (30-357, looked up): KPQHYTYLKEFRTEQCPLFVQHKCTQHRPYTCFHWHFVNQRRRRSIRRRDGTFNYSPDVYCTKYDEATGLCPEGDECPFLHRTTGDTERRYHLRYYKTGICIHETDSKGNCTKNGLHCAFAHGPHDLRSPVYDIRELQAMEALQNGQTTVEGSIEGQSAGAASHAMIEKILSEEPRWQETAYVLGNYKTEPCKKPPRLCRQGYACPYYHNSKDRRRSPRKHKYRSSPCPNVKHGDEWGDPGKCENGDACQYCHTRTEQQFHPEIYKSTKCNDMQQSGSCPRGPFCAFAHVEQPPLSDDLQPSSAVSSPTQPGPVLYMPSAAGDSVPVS
# Technique: RNA Bind-n-Seq
# Form: RNA
# Matrix: in vitro
# Concentration: not given
# Notes: RNA with constant flanks, human and mouse sites, ends assumed
# Relative to: input RNA pool
# Reading: higher = stronger binding
# All sequences stand within: GGGAGUUCUACAGUCCGACGAUC … CAACAGAGGAUUGAGCAUCA
Strand,bound/input enrichment [ratio]
GUUUAGUAUUGUAGUUAGGCUGUUUGUGUGUAUGCAUGUGUAUGUGUGUAUGAGUGCGUUUGUGUGUGACCAAAACAGUAACUGGCAAACGUAACAACAGGAAAUUGUAGGGCAGGGUCU,4.2
CAUCGACAUUGGUAAUGUGGCCAGCUCUCCUUGGUCCUGUCCUCAGCCGAUGCUUUUUCAAUAGGAUUUUUAUGCUUUGUGUACCUCAACCAAGUAUGAAGAGCUGUACUGGUUUUAUAG,0.955
ACAACAGCUAGAGCUUUUGCUGUUGUAGCCUCUGCCCUGGGCAUUCCUUCUUUAUUGCCCUUCUUAAAAGCUGUGUGCAAAAGCAAGAAGUCCUGGCAAGCGAGACACACUGGUAUUAAG,0.123
UGCUUGGUGCUGAUUUGUGAACCCAUUCCUCACCCAUCAAAUAUUGAAAUUCCUUUAGAUAGCAAGACUUUCCUCAGUCGACACAGCCUGGAUAUGAAAUUUUCUUAUUGUGAUGAAAGA,1.4
GAUGGGCCUAUUUGCUUGGUGCUGGCACCAACUCGAGAACUGGCACAGCAGGUGCAGCAAGUGGCUGCUGAAUAUUGUCGAGCUUGUCGCUUGAAGUCUACUUGCAUCUAUGGUGGUGCU,0.222
GUGGUGUGAACACGGCUCACUGCAGCCUCAACCUCCUGGACUCAGAGAUGUCGGCUUAUUUAUAGGAAUUGCUUGAAGCCAGAGUCAUGGUGGAUGUCGGAAAGUGGCCCAUCUUCACUC,0.162
GUGCUAGAAAAUAAGGUCGUCUGGGAAAAGGACUGGAGACACAAGCGCAUCCAACCCCGGUAGCAAACUGAUGACUUUUCCGUGCUGAUUUCUUUCAACCUCGGUAUUUUCCCUUGGAUA,0.321
AAUGAUGAAGUAACAAUAAAGUAUAAAGAUGAAGAUGGAGAUCUUAUAACAAUUUUUGAUAGUUCUGACCUUUCCUUUGCAAUUCAGUGCAGUAGGAUACUGAAACUGACAUUAUUUGUU,0.314
UCCCUAAUCAAAGUAAACUAUAAUCAGACUGCAGUCAAAGUGCCUACAACACCUGCCAGCCCAGUGAAAAACUGGGGAGGAUUCCGGAUUCCAAAGAAGGGGGAACGGCAGCAGCAGGGA,0.207
UUCUGUUUGUGCCCAGUGAUGUCUUUCCUUGUCUUCCUUUUGACUGUAUUUUAAGAUUACUUUAGAUGAUUCUGUGCAAUGUUUAUGACCUUUCCUACCCUUCUAAUGUUCAGUUAACAC,0.847
CUGGCAUCAGUGAAGAUUUCCAAGGUGAAAUAUGUUAUCUGGUCGGCAGACAUGUCUCAUGUAGCGUUACUGGCCAAGCAUGCCAUUGUGAUCUGUAACCGCAAGCUGGAUGCUCUGUGU,0.136

# Set 4
# Target: Histone acetyltransferase KAT6A, both winged helices, GST fusion (KAT6A, Homo sapiens, UniProt Q92794, residues 1-181)
# Technique: protein binding microarray
# Form: double-stranded DNA, one strand shown
# Matrix: in vitro
# Concentration: not given
# Notes: 8-mer, flanks averaged, mean of 2 arrays, mostly near background
# Relative to: not given
# Reading: higher = stronger binding
# Construct (chain): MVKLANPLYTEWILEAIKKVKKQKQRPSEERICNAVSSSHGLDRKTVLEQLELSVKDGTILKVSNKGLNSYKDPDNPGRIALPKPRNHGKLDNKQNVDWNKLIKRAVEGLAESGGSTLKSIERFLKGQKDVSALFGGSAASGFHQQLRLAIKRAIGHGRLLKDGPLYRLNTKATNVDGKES
Strand,E-score
GTGCGTGA,0.15
CCGATCTA,-0.0132
AACTTGAA,-0.125
AGTGAAAT,-0.312
GGAATGCC,0.107
CAGACGTA,-0.0989
AATATAGC,-0.0704
GTGATGGA,-0.176
CACGATAG,-0.0753
AAGCCCGC,0.212
CCGCCCAA,0.0369
GCCACGAC,-0.058
ACCAAATC,-0.12
GAATACTA,-0.0772
CGATAAAC,0.104
AGGTGAAG,-0.158
ATTTATAC,0.0648

# For quick reference, copied from above (set 1):
Substitution,normalised enrichment score
PPVKRRLKLETDH [D8K],0.463
PPVQRRLDLETDH [K4Q],0.447
PPVKRPLDLETDH [R6P],0.0181
FPVKRRLDLETDH [P1F],0.874
PPVKRRLDLGTDH [E10G],0.563
PPVKRRLDLETDY [H13Y],0.545
PPVKMRLDLETDH [R5M],-0.0213
PPVKRRLDLNTDH [E10N],0.607
PPVKRRLDLEPDH [T11P],0.927
PPVKRRLDLITDH [E10I],0.659
PPVKRRLDLETDA [H13A],0.415
